# Experimental data collected from several papers.
# Numbered parts are unrelated; each lists some results of a single study. Substitutions count along the parent as printed.

# Study 1 — technique: RNA Bind-n-Seq; form: RNA; matrix: in vitro; tested at: 200 nM; setting: whole 134-nt RNA, ends assumed; added: 150 mM LiCl; baseline: input library; direction: higher = stronger binding; all molecules: 7-deaza-guanosine replaces G
# Target: Ras GTPase-activating protein-binding protein 1, full length (G3BP1, Homo sapiens, UniProt Q13283)
# UniProt Q13283, sequence (whole entry, looked up): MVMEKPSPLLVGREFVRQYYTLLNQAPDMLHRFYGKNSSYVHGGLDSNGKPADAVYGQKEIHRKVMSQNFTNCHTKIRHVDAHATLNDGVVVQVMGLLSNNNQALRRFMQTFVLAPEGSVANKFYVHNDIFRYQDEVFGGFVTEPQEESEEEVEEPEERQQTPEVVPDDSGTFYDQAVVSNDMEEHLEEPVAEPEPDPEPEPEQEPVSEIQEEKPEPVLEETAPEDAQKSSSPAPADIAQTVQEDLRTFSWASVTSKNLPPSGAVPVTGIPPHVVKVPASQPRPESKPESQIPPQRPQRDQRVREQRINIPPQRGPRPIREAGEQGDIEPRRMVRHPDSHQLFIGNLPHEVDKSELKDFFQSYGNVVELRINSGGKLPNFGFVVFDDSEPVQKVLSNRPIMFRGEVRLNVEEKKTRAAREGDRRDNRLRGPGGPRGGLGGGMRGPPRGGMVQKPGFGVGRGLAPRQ
# Shared flanks, not repeated: GGGAGUUCUACAGUCCGACGAUC … UGGAAUUCUCGGGUGUCAAGG
Sequence,log2 enrichment
CCUGUGCUACACAUCGUAUGUACCGAAUCGGGGUUUUUUGGGUUUUUUGGGGUUUUUUGGGAAAGUAUUAUGUUACGCCGUUCGGAUCUG,0.655
UCAAGUCCUGUGCUACACAUCGUAUGUACCGAAUCGGGGUUGGGGUUGGGGUUGGAAAGUAUUAUGUUACGCCGUUCGGAUCUGCACUUC,-0.65
GCAGGAAGUAAAAACUAAUGGAAAUGCUUCGGAUAGUGGCAGGGGUGGGGGUUGCUAAGGAAAGGGUGGGAUGGGAGUGGGUAAAGAGUU,-0.0513
CCUGUGCUACACAUCGUAUGUACCGAAUCGGGGAAAAAAGGAAAAAAGGGGAAAAAAGGGGAAAGUAUUAUGUUACGCCGUUCGGAUCUG,0.705
CAAGUCCUGUGCUACACAUCGUAUGUACCGAAUCGGUUUUUUUGGUUUUUGGAGGAAAGUAUUAUGUUACGCCGUUCGGAUCUGCACUUC,-0.256
AGGCUAUGGAGGCUAUGAUGAUUACAAUGGCUAUAAUGAUGGCUAUGGAUUUGGGUCAGAUAGAUUUGGAAGAGGUAAGGUAAGAAUUGA,-0.4

# Study 2 — technique: RNA Bind-n-Seq; form: RNA; matrix: in vitro; tested at: not given; baseline: input RNA pool; direction: higher = stronger binding
# Target: RING finger protein unkempt homolog, zinc fingers 1-6, GST-SBP tag (UNK, Homo sapiens, UniProt Q9C0B0, residues 30-357)
# UniProt Q9C0B0, sequence (30-357, looked up): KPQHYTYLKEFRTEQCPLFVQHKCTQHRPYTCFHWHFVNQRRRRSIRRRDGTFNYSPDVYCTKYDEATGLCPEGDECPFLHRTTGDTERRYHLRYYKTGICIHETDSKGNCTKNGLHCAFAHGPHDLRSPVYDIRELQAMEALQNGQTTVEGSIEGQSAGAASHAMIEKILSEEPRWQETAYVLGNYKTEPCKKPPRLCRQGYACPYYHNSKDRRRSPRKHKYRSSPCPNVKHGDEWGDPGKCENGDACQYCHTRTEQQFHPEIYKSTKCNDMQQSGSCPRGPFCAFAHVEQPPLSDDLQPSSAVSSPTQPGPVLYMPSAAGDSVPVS
# Setting: RNA with constant flanks, human and mouse sites, ends assumed
# Shared flanks, not repeated: GGGAGUUCUACAGUCCGACGAUC … CAACAGAGGAUUGAGCAUCA
Sequence,bound/input enrichment [ratio]
GAAGCAAAUGUCCAUUUCCAAAGCAGCUGGCAUAUCAUCAGUACCACGGCUUUAUUCUUCUAUAGUAAGUCUCCCCUCUUUACUGGGGAGAAAAAAAAUUCUCACUGGAGAAACCCUUAG,3.52
GGAAUUGAAAACUGGCACCCCAUCUCUUUGAAACAUCUGGUAAUUUGAAUUCUAGUGCUCAUUAUUCAUUAUUGUUUGUUUUCAUUGUGCUGAUUUUUGGUGAUCAAGCCUCAGUCCCCU,0.155
AAGGCCCUGCAGGAGCAGCUCAGUGAGAUUCGGAGUCGAGAAGAAGAGCCGUUUUCAUUUUAUAGCGAUCAAACAUCGUAUCUGAGUAUUUGCCUUGAAGAGCACAAUCAGUUCCAAUUG,0.413
CUUACCACCUUGUCCCAGCAGCUAGAGAAUGAAAAUGCUGUGGAUGUGUUCCAGGUGGCAAAAAUGAUCAAUCUUAUGAGACCUGGAGUAUUCACAGACAUUGAACAAUACCAGUUUGUC,0.194
GAGGGAAGGGAUGAGUCUUCAAGAAUGUCUACGUCAGAUGUACCACCUAGAUCUCAUAUUUUCAGAAGAGAUUCAAAUGAAGUAGUUCAUCUUGAAGCACAGGGUGACUCCCUUGGGGCU,0.257

# Study 3 — technique: competition protein-binding microarray; form: double-stranded DNA, one strand shown; matrix: in vitro; tested at: 2 µM; added: Pho4 competitor, 0.05 µM; direction: higher = stronger binding; shared flanks, not repeated: … GTCTTGATTCGCTTGACGCTGCTG
# Target: Centromere-binding protein 1, full length, His-tagged (CBF1, Saccharomyces cerevisiae, UniProt P17106, residues 1-351)
# UniProt P17106, sequence (whole entry, looked up): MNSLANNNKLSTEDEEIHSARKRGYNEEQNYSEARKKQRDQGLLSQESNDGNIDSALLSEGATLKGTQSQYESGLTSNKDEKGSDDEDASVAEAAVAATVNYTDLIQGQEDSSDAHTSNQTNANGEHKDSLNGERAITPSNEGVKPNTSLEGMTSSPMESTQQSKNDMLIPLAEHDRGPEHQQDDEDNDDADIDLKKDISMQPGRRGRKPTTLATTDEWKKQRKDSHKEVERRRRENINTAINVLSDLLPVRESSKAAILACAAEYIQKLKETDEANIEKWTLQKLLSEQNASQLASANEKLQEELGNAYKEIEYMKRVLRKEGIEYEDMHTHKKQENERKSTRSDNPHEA
# Setting: whole 60-bp probe, lowest competitor level
Sequence,fluorescence intensity [a.u.]
CCGGAACAACCTTGGTGCATGACAGAACGTAGACCA,69.7
TATTTTACTATCTTACACGTGTTGGTAACATAAACG,1530
CTTCTGTAAATTTTTCACGTGTGTTGACGCGCCCCG,580
CATACCCAACCTTGAGCTGTGGGTGAAGATATTTGT,61.5
CATACCCAACCTTGCTCGGTGGGTGAAGATATTTGT,58.8
TGCGCAACAACTTGCGAGGTGGGTGTATGTCTAGAA,64.9
GTCTTGTCTCATTTTCACGTGCTTTTCCCCACTTCA,976
AGCAGAAGAAAACATACCGTGCGATATAGTACCTGG,74.9
CTGGTAGCCCTATCGCACGTGCCGATCTGATCAAGG,1560
TTTGCAGGAAACAGCCGCGTGCCAGTTTGCTCGATA,76.9
TCTCCCTCACTGCATCCCGTGACGGGTTTCTTAGCA,660
TATGAATGCAACGGCCACGTGGGTAGAATGGGAGGA,1100

# Study 4 — technique: protein binding microarray; form: double-stranded DNA, one strand shown; matrix: in vitro; tested at: not given; baseline: not given; direction: higher = stronger binding
# Target: Histone acetyltransferase KAT6A, winged helix 2, GST fusion (KAT6A, Homo sapiens, UniProt Q92794, residues 85-181)
# Setting: 8-mer, flanks averaged, mean of 2 arrays, mostly near background
# Residues (chain): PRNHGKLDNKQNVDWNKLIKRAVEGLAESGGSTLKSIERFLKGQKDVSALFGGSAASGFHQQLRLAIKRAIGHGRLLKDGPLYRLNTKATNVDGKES
Sequence,E-score
ACTGTCTC,-0.0811
GAGGTTGA,-0.105
CTAATGGC,0.0535
CGGATTAC,-0.103
AACTGTCA,-0.202
CCCTGTGA,-0.0288
AAGTGAGT,-0.115
AGGAAGAG,0.0132
GGCAGTGA,0.135
CTCTGACA,0.121
ACGCCTCT,-0.0882
AAGATAGG,-0.173
ACAGTTCG,-0.0983

# Study 5 — technique: universal PBM; form: double-stranded DNA, one strand shown; matrix: in vitro; tested at: 600 nM; direction: higher = stronger binding
# Target: Sal-like protein 4, full length isoform A (SALL4, Homo sapiens, UniProt Q9UJQ4, residues 1-1053)
# UniProt Q9UJQ4, sequence (whole entry, looked up): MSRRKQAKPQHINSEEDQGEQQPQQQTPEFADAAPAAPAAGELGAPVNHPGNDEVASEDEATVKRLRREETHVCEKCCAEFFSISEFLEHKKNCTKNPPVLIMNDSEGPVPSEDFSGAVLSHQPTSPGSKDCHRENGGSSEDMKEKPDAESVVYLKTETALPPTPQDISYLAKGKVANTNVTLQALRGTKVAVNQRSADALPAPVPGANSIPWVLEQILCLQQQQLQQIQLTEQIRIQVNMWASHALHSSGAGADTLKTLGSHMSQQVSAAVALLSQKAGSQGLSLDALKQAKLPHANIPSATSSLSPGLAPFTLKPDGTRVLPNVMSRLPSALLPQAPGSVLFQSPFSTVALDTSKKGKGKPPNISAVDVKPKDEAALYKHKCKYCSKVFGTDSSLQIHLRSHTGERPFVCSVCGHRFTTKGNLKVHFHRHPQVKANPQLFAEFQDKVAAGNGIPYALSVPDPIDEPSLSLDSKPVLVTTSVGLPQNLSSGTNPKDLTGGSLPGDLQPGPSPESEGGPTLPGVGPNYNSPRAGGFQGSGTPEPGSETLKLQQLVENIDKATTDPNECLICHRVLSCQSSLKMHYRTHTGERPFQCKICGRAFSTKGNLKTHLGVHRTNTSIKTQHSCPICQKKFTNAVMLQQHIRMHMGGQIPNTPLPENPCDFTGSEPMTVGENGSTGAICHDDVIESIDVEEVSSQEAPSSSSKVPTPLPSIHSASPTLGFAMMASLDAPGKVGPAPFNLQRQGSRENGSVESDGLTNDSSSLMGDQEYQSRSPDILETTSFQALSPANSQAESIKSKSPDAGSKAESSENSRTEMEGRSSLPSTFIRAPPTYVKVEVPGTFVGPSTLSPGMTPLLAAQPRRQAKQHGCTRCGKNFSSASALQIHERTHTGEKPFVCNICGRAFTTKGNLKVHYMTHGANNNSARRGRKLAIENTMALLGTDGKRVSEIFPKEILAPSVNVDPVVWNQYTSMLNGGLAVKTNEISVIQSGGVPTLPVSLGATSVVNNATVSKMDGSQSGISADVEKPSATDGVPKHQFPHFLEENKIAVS
# Setting: 8-mer, flanks averaged, mean of replicates
Sequence,E-score
AGAAAAGC,-0.027
AGATAGGC,-0.0463
GAGGAACA,-0.0131
CTATCCGA,-0.0859
ATTTAAAT,0.366
CTATTTAC,0.12
TACCAAGA,0.114
TCGCGGCA,-0.205
GAGAAGCA,-0.0342
CGGTTAAA,0.0393
CTAGGTTA,0.167
ACGTGCCG,-0.24
ACGAACGT,0.0119
AGCGGAGC,-0.239

# Study 6 — target: CCNE1, cyclin fold, Cln2 fusion (human); technique: yeast growth competition, sequencing; matrix: yeast; setting: strong parent motif; baseline: not given; direction: higher = stronger binding
# Parent: E2F1 docking peptide (human); PPVKRRLDFETDH; partner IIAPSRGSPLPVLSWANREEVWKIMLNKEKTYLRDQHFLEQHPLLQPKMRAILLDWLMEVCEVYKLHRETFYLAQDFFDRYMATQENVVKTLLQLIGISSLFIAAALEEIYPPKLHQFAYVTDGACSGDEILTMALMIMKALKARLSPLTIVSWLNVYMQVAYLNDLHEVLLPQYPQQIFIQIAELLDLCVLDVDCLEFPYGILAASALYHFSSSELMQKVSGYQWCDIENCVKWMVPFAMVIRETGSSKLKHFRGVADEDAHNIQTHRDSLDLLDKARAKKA
Variant,normalised enrichment score
R6G,0.808
R6I,5.99
V3A,5.34
L7Q,0.357
K4V,6.09
R5I,0.723
T11F,6.6
R5E,-0.046
L7K,0.143
V3H,3.92
V3N,0.102
F9A,0.189
L7N,-0.392
K4M,4.99
F9W,3.45

# Repeated from above (study 5):
Sequence,E-score
AGATAGGC,-0.0463
GAGGAACA,-0.0131
CTATCCGA,-0.0859
ATTTAAAT,0.366
CTATTTAC,0.12
TACCAAGA,0.114
TCGCGGCA,-0.205
